Measured values of several laboratories.
Numbered parts are unrelated; each lists some results of a single study.

Series 1 — method: RNA Bind-n-Seq; molecule type: RNA; medium: in vitro; tested at: 1 µM; notes: whole 134-nt RNA, ends assumed; added: 150 mM KCl; baseline: input library; reading: higher = stronger binding
Target: Ras GTPase-activating protein-binding protein 1, RRM domain (G3BP1, Homo sapiens, UniProt Q13283)
Chain of UniProt Q13283 (whole entry, looked up): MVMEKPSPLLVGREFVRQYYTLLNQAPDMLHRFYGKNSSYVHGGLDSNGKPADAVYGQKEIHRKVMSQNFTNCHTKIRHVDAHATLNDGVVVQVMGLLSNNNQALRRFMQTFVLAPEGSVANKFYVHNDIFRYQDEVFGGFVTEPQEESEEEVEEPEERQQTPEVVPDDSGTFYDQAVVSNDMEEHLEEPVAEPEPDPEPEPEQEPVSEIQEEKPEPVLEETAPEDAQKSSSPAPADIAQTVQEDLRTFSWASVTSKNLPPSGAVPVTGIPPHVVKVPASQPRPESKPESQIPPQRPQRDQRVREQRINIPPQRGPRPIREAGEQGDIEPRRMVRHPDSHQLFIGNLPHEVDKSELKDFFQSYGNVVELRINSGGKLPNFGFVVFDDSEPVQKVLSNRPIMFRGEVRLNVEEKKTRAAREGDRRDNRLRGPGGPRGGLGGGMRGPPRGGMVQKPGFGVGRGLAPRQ
All sequences stand within: GGGAGUUCUACAGUCCGACGAUC … UGGAAUUCUCGGGUGUCAAGG
`UCCUCAAGUCCUGUGCUACACAUCGUAUGUACCGAAUCGGAAAGGUGGUGGAAAGUAUUAUGUUACGCCGUUCGGAUCUGCACUUCCAGC` has a log2 enrichment of -0.179.
The log2 enrichment of `UCAAGUCCUGUGCUACACAUCGUAUGUACCGAAUCGGAAGGGGAAGGGAAGGGGAAAGUAUUAUGUUACGCCGUUCGGAUCUGCACUUCC` is reported as 0.659.
The log2 enrichment of `UCAAGUCCUGUGCUACACAUCGUAUGUACCGAAUCGGGAAAGGGAAAGGGAGGGAAAGUAUUAUGUUACGCCGUUCGGAUCUGCACUUCC` is reported as 0.895.
`CACAGACAACACGCACCCACACAGACACAGAGGGAAGGGGUUGGGAUGGGGACAGGGUUCACAGCAGGGCGGGGUAGGACCCCAGCCCCU` gave a log2 enrichment of -0.1.
For `CAAGUCCUGUGCUACACAUCGUAUGUACCGAAUCGGCCCGGGGCCCGGGCCCGGGGAAAGUAUUAUGUUACGCCGUUCGGAUCUGCACUU`, the log2 enrichment was -0.732.
The log2 enrichment of `UAACUUUAGAGGAGGAUCUGAUGGAUAUGGCAGUGGACGUGGACUUGGGGAUGGCUAUAAUGGGUAUGGAGGAGGACCUGGAGGUGGCAA` is reported as -0.683.
The log2 enrichment of `ACCAUGCAGGUGGGCAUCUUUGGGAAGUGGGGCAAGGGGGGGAUUGGGAGGGGGGUAACACUUUGGGAACAGGUGGUCCCAGGUCGUUUC` is reported as 1.02.
The log2 enrichment of `AAGUCCUGUGCUACACAUCGUAUGUACCGAAUCGGAAAAAAAGGAAAAAGGAAAGGAAAGUAUUAUGUUACGCCGUUCGGAUCUGCACUU` is reported as -0.0441.
`UCAAGUCCUGUGCUACACAUCGUAUGUACCGAAUCGGGGAAAGGGAAAGGAAAGGAAAGUAUUAUGUUACGCCGUUCGGAUCUGCACUUC` has a log2 enrichment of -0.304.
The log2 enrichment of `CAAGUCCUGUGCUACACAUCGUAUGUACCGAAUCGGUUUGGUUUUUGGAAAAAGGAAAGUAUUAUGUUACGCCGUUCGGAUCUGCACUUC` is reported as -0.125.
`UCCUCAAGUCCUGUGCUACACAUCGUAUGUACCGAAUCGGGGAGGAGGAGGAAAGUAUUAUGUUACGCCGUUCGGAUCUGCACUUCCAGC` gave a log2 enrichment of -0.288.
For `ACCAUGCAGGUGGGCAUCUUUCGGAAGUGGGGCAAGGGGGGGAUAGGGAGGGGGGUAACACUUUGGGAACAGGUGGUCCCAGGUCGUUUC`, the log2 enrichment was -0.546.
`CCUGUGCUACACAUCGUAUGUACCGAAUCGGGGAAAAAAGGGAAAAAAGGGGAAAAAAGGAAAGUAUUAUGUUACGCCGUUCGGAUCUGC` has a log2 enrichment of 0.00255.
`CCUCUGGACGAGACCAGCCAGAUGAGCGACCUCCCGGUGAAGGUGAUCCACGUGGAGAGUGGGAAGAUCCUCACAGGCACAGAUGCCCCC` gave a log2 enrichment of -0.466.

Series 2 — method: aptamer microarray, sandwich; molecule type: DNA with 2'F-ANA; medium: in vitro; tested at: 200 nM; added: Cy3 exosite-II aptamer, 400 nM; reading: higher = stronger binding; sequence: GGTTGGTGTGGTTGG
Target: Prothrombin, mature alpha-thrombin (F2, Homo sapiens, UniProt P00734)
Notes: whole 15-mer aptamer, many near background
Under “mean fluorescence intensity”, `2'F-ANA at 3 5 7 9 10 11 13 15` is recorded as 56.6 a.u.
For `2'F-ANA at 4 5 6 8 10 14`, “mean fluorescence intensity” read 54.8 a.u.
Under “mean fluorescence intensity”, `2'F-ANA at 1 6 10 12 14` is recorded as 91.3 a.u.
Under “mean fluorescence intensity”, `2'F-ANA at 1 3 4 5 6 9 15` is recorded as 63 a.u.
Under “mean fluorescence intensity”, `2'F-ANA at 1 5 13 15` is recorded as 47.1 a.u.
Under “mean fluorescence intensity”, `2'F-ANA at 3 4 5 6 9 10 11 12 13 15` is recorded as 53.7 a.u.
Under “mean fluorescence intensity”, `2'F-ANA at 1 3 4 6 9 11 12` is recorded as 280 a.u.
For `2'F-ANA at 3 4 5 6 8 9 10 11 13`, “mean fluorescence intensity” read 52.2 a.u.
For `2'F-ANA at 2 3 4 8 9 10 11 12 15`, “mean fluorescence intensity” read 261 a.u.
`2'F-ANA at 1 2 3 4 6 7 8 10 11 12 14 15` — result for “mean fluorescence intensity”: 56.8 a.u.
Under “mean fluorescence intensity”, `2'F-ANA at 4 8 10 11 13 14` is recorded as 58 a.u.
`2'F-ANA at 4 6 7 11 14` — result for “mean fluorescence intensity”: 83.2 a.u.
Under “mean fluorescence intensity”, `2'F-ANA at 1 3 4 5 6 8 12 14 15` is recorded as 47.7 a.u.
Under “mean fluorescence intensity”, `2'F-ANA at 1 3 4 7 8 9 13` is recorded as 162 a.u.
`2'F-ANA at 4 5 8 9 10 12 14` — result for “mean fluorescence intensity”: 47.1 a.u.
Under “mean fluorescence intensity”, `2'F-ANA at 4 8 9 10 11 14` is recorded as 56.1 a.u.

Series 3 — method: RNA Bind-n-Seq; molecule type: RNA; medium: in vitro; tested at: 365 nM; baseline: no-protein control; reading: higher = stronger binding
Target: RNA binding protein fox-1 homolog 2, RRM domain, GST-SBP tag (RBFOX2, Homo sapiens, UniProt O43251-10, residues 100-194)
Notes: natural RNA segment, single round, ends assumed
All sequences stand within: GGGAGUUCUACAGUCCGACGAUC … UGGAAUUCUCGGGUGCCAA
Target sequence (chain): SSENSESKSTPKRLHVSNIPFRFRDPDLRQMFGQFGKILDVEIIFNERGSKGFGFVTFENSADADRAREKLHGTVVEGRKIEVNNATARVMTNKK
`UUAGCAGUUUUAUGCUGGCGAUAAUUUAUCUACGUGCAUUGCAAUAAACAUUUCGUUUCCUAAGAUGAGACAUUCCGUGGCUUUUUUGAAAACCCUUGGAAAAGCAUUGC` — result for “RBNS enrichment (R)”: 0.571.
`UAUCUAUCUAUCUGGAUUUGACUUGAAUUUUUAAAAUGUGUAUCGUUUAAAAAAAAAAAUGUUUGCAAAUUUUGCACAUAGGAUCUUGCACUGUUCAUUUUCAGUGGGGU` — result for “RBNS enrichment (R)”: 0.738.
`CAAGCUUAACUUCAUGUAAAGUCUUCACUGCCAGUGGGAACAUCUUUGACACAACAAGACACUCCAAUUGUGAUUUGAGUUGAGGAUCUCUGCCUGCCUUCCUGCCGUCC`: “RBNS enrichment (R)” 0.258.
`AAUUUCCUGGGCAGUUGAUGCAUCUCUGGGAAAAACACCAGAAAGCUUGCUGAAAUGGAAAACUUGGAAGAAUUGUUCAUCUCUUAGGCUUCCAUUUGGAUGGGCCUGCC` — result for “RBNS enrichment (R)”: 0.448.
`GAAGUGGCUUAGGCCAAAGCUUCCUGUGUGAUGACGCACGUCCGAGACUGUUCCAUCUCAUUCCUCGCAAAUUUGAGCUCUUCUGAUCAAUUCUAAAUAUUUGAUUAAUU` — result for “RBNS enrichment (R)”: 0.322.
`GGCGAGUCUAAUUGUUAGACAUUUCUUACUUAUAGUGAUUGGAUUCUGCUUUCCUAUGACUUCUGCCUACUGGGUCUUGUUUUGUUCCUUGGAUCGAAACAGAACCGUUU`: “RBNS enrichment (R)” 0.202.
`CUUUACCACCUGAGGCCUCCUUAUAUCUCUUCCCAGAGUAAGCUUUGGGAUUGUAGACAUGUGGGAGCUAUGACAGACGUGGCCUGGGGUAGAAAGAUCUCAGGAAAGCA` — result for “RBNS enrichment (R)”: 0.785.
`CAGACCUAAUGGAUCACUGUCUUGCAGCUAGUUCUUCAUGUGGGGCCUCUUAGGCCAGUGCCGGAGGAGGCAUGCUCCUCUUUCUAUGCCACAGAACAAACACUACUCUA` — result for “RBNS enrichment (R)”: 0.399.
Under “RBNS enrichment (R)”, `UACUGUGUGCCAGGCACUAUGAGGCACUUUUCUAUUUAUCCUCUUUUAAGAUAGGACUAAGAGUUCAUCUCCUUCUAGAAGGCCCCCAGGUUAAAUAAAAACACUUGGGG` is recorded as 0.81.
`CACAGGGGAAUGGGGUUACUUCUGUCUGAUCCUGGGCCUUUCUUUCAUCCCAAAUGACAAGGAAUGUGGCUCAGAGAAGGGUUUUUCUUUUUUGACCUUUCUUCUCUCAA`: “RBNS enrichment (R)” 0.542.
`UUGGAAUGAAGGCUGCAGGCACUGGUUGCAGACGUCUUUAUAGGCAGUCACCAUGUUGUCAAACCUUAAUAAUGCACCUCAUGUAUUAGUCACAAUAAAAAUCAGAACUC`: “RBNS enrichment (R)” 0.378.
For `CUUCGUGGUAUCUUCACAGAUCACAAGUAAAUGUGAAUCUGAAAGAUAGCAUCCACACAAAAUUCUAUAAUCGGAAAGAUCUUUGUAACUAAUCUGAAAUACACAUAAAU`, “RBNS enrichment (R)” read 0.64.

Series 4 — method: protein binding microarray; molecule type: double-stranded DNA, one strand shown; medium: in vitro; tested at: not given; baseline: not given; reading: higher = stronger binding
Target: Histone acetyltransferase KAT6A, winged helix 2, GST fusion (KAT6A, Homo sapiens, UniProt Q92794, residues 85-181)
Notes: 8-mer, flanks averaged, mean of 2 arrays, mostly near background
Residues (chain): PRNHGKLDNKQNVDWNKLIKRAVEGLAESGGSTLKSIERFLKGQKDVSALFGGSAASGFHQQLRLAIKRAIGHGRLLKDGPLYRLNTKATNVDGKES
`ATTCTTCG` has an E-score of -0.00159.
For `CAACCTCC`, the E-score was -0.0689.
The E-score of `AGAACTCG` is reported as 0.00133.
The E-score of `AATCTATC` is reported as -0.0186.
For `CGCGATAA`, the E-score was 0.00537.
`TGCAAGAA` has an E-score of 0.141.
With `AGACGTCT` the E-score was -0.206.
`ACGGCTTA` has an E-score of 0.0699.
For `GGCAGCCA`, the E-score was -0.063.
The E-score of `GTCGCTCA` is reported as 0.0186.
`ACTGTGTA` has an E-score of -0.01.
The E-score of `AAGGACAT` is reported as -0.0103.
For `GTCGATAA`, the E-score was -0.228.
The E-score of `AGGTGGGG` is reported as 0.0981.
`CGCGTCCC` has an E-score of 0.108.
`ACATTCCG` gave an E-score of -0.115.
`AATAGGTG` has an E-score of -0.173.
With `CCCCTGAG` the E-score was 0.0382.
The E-score of `CATTTCTA` is reported as 0.0258.
For `GTATCTAA`, the E-score was -0.0982.
`CAGGCAGG` has an E-score of -0.0552.
The E-score of `AGCACAGC` is reported as 0.15.
With `GAGAGTTA` the E-score was -0.14.
For `GACCCCGC`, the E-score was 0.0857.
For `ACTTTGCC`, the E-score was -0.0176.

Series 5 — method: protein-binding microarray; molecule type: double-stranded DNA, one strand shown; medium: in vitro; tested at: 250 nM; notes: 60-bp whole probe; added: salmon DNA 0.4 mg/ml; baseline: random background probes; reading: higher = stronger binding; all sequences stand within: GCCTAGCAC … GTCTTGATTCGCTTGACGCTGCTG
Target: Interferon regulatory factor 5, full length, phosphomimetic (IRF5, Homo sapiens, UniProt Q13568-2, residues 1-514, K96S/S451D/S453D/S456D/S462D)
`CTGGGGGCAGTTTCATGGCCGTGCTAG` gave a log fluorescence of 0.747 z-score.
The log fluorescence of `CACGATCTCAGACTGGAGACGTGCTAG` is reported as -0.528 z-score.
`TCACGTGACCCTCTCAAACTGTGCTAG` has a log fluorescence of -0.494 z-score.
`TTTGGTCTCGGTATCGGTTAGTGCTAG` has a log fluorescence of 6.3 z-score.
With `GAGGGTTCCCTTTTCCTGACGTGCTAG` the log fluorescence was 0.114 z-score.
The log fluorescence of `GACGATATCGGGACTCGAGACGTGCTA` is reported as 0.896 z-score.
`TCAATCATCCGTTTCTTACTGTGCTAG` gave a log fluorescence of 1.08 z-score.
`TTCTACTTCTCTTTTTGCTTGTGCTAG` has a log fluorescence of 1.34 z-score.
`ATGAGCCTCTGTTTTGAGCAGTGCTAG` gave a log fluorescence of -0.261 z-score.
`CCTGGTTTTACTTTCTATCTGTGCTAG` gave a log fluorescence of 4.43 z-score.
With `TTAGAACTGAGCATCGATTAGTGCTAG` the log fluorescence was 0.419 z-score.
`TCAACCATCATCCTCACACTGTGCTAG` gave a log fluorescence of 0.0663 z-score.
The log fluorescence of `TCAGGTCTCCTTCTCCTTTAGTGCTAG` is reported as -0.0164 z-score.
`TTAGGTATCTGTCTCGGTTAGTGCTAG` has a log fluorescence of 1.48 z-score.
The log fluorescence of `GACGTTCTCAGTCTCGAGACGTGCTAG` is reported as 0.00759 z-score.
For `TCAGATGCCTTTCTCTTACTGTGCTAG`, the log fluorescence was 0.787 z-score.
